Assay results from different studies.
Each numbered part is a random draw from the data of one study; scales do not carry over between parts. Positions count from the first letter of the parent shown.

Study 1
Target: CCNA1, cyclin fold, Cln2 fusion (human)
Technique: yeast growth competition, sequencing
Medium: yeast
Setting: weak parent motif
Reference: not given
Direction: higher = stronger binding
Parent: CDC6 docking peptide (human); TLKGRRLVFDNQL; partner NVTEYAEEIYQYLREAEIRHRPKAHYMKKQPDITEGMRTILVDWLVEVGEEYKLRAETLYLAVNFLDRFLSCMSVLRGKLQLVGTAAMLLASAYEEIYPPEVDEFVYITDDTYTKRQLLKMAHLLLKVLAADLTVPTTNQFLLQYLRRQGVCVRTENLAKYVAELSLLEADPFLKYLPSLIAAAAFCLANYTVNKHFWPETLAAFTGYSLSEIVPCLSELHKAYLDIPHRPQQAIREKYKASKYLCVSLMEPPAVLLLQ
Substitution | normalised enrichment score
L13S | 0.325
R5N | 0.0456
R6F | 0.117
L13T | -0.117
L13P | 0.338
G4P | 0.351
R6P | 0.146
Q12A | 0.235
L7I | 0.655
L2N | 0.037
R6H | -0.0024
T1Y | 0.184
L7Y | 0.389
N11E | -0.0156
T1C | 0.264
L13H | -0.121
N11T | 0.192
T1R | 0.0789
L7V | 0.253
K3T | 0.417
L13I | 0.102
G4H | 0.397
G4I | 0.748
R5E | -0.219
F9T | 0.262

Study 2
Target: ABI1, truncated, D143A, DHFR fusion (Arabidopsis thaliana)
Technique: DHFR PCA, deep sequencing
Medium: yeast
Setting: methotrexate growth selection, single substitutions
With: (+)-ABA 0.39 µM
Reference: wild-type fitted maximum
Direction: higher = stronger binding
Parent: PYL1, truncated, DHFR fusion (Arabidopsis thaliana); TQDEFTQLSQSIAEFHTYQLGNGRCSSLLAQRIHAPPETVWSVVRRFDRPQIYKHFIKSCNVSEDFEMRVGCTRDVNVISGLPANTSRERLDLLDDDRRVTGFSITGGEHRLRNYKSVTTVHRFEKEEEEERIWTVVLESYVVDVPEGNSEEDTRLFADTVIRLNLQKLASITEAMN; partner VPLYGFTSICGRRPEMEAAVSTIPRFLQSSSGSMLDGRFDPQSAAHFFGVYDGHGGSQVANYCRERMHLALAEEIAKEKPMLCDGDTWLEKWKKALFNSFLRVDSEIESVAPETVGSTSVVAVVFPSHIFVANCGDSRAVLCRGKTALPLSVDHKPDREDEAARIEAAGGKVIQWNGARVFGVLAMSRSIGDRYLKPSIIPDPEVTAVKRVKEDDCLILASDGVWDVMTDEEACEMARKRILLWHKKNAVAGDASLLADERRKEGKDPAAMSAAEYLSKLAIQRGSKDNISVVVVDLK
Substitution | relative binding score [%]
H34D | 46.8
T17E | 4.24
S9V | 30.1
N61S | 61.9
D144H | -0.0985
E128G | 72.4
I12D | -3.09
D159L | -18.2
L169F | -14.5
L29H | 32
E125W | 19.4
Y115S | 3.45
A30K | 37.2

Study 3
Target: Transcription factor Sp1 (SP1, Homo sapiens, UniProt P08047, residues 1-785, full length assumed)
Sequence of UniProt P08047 (whole entry, looked up): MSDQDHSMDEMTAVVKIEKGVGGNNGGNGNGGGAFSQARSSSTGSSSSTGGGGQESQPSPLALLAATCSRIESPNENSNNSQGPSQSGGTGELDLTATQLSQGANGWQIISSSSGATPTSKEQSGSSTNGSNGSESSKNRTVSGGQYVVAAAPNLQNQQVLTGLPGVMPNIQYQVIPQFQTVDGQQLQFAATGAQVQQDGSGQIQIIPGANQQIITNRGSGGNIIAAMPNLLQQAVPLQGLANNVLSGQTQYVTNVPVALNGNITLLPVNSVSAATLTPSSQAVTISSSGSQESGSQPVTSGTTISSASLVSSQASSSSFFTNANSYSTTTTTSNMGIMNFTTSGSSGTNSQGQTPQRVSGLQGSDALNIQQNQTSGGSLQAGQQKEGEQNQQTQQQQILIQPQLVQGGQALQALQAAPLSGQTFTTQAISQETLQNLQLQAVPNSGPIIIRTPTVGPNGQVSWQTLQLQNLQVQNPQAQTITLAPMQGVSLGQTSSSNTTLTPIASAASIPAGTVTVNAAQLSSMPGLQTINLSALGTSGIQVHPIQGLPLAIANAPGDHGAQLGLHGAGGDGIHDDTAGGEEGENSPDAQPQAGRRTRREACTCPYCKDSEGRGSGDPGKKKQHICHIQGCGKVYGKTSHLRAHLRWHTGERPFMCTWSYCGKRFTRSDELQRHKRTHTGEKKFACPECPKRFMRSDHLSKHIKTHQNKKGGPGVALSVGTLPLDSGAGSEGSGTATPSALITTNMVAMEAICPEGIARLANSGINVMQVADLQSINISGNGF
Technique: protein-binding microarray
Form: double-stranded DNA, one strand shown
Medium: in vitro
Tested at: not given
Setting: k-mer, scored over probes, only values ≥0.25
Direction: higher = stronger binding
Sequence | E-score
ACATATTC | 0.296
ACATGGGG | 0.259
CCCACCCC | 0.485
TACAATAA | 0.256
CCCTTTAC | 0.339
GCACTCCC | 0.364
GCGGGGTA | 0.388
AGGGGGAG | 0.322
GTATGATA | 0.31
TACGTTGA | 0.294
CCCCACAA | 0.325
CACCCCGC | 0.321
ATTACCCA | 0.265
CCCCATAC | 0.362
ACCCATAC | 0.27
CCCCGCCC | 0.498
ATGGTGTG | 0.251
CCCCTTTC | 0.272
ATCCCGAT | 0.265
AGTGGGAT | 0.299
CCCACTTA | 0.295
ACCACACC | 0.312

Study 4
Target: Histone acetyltransferase KAT6A, winged helix 2, GST fusion (KAT6A, Homo sapiens, UniProt Q92794, residues 85-181)
Technique: protein binding microarray
Form: double-stranded DNA, one strand shown
Medium: in vitro
Tested at: not given
Setting: 8-mer, flanks averaged, mean of 2 arrays, mostly near background
Reference: not given
Direction: higher = stronger binding
Construct (chain): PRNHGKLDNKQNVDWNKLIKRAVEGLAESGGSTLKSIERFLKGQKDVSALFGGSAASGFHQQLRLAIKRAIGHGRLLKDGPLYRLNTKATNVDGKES
Sequence | E-score
CACGTCGG | -0.00445
AAAAATGA | 0.0771
GTGCGATA | -0.03
AGTTCTTG | 0.0767
ATCAGAGC | 0.0464
CCCCCCGC | 0.139
AGCGTAAC | -0.0185
GGTGATAA | -0.0588
CGCGACTA | 0.116
AGATGGTC | -0.0606
CCGTAGCC | -0.0491
ACGCGGCT | -0.0564
AGTTCTGA | 0.0863
CCTCGGAG | 0.236
CTTGCGTA | 0.0522
CCAGCCGC | 0.168
ACGCACGT | -0.226
GCGTAACA | -0.112
GCAGATGC | 0.192
AGTCATCG | 0.00686
GAGCCACA | -0.014
CTTGCACA | -0.0826
ACGAGTGC | -0.127
GCGAATCC | -0.0762
AGTCACGC | -0.15

Study 5
Target: DBP, bZIP domain (human)
Technique: DHFR protein complementation
Medium: yeast
Setting: single substitutions, most at no-binding floor
Reference: wild-type JUN-FOS pair
Direction: higher = stronger binding
Parent: JUN, bZIP domain (human); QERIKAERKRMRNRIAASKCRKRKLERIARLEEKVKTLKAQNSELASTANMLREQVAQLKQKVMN; partner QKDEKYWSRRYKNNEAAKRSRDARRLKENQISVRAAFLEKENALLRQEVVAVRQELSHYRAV
Substitution | binding fitness [natural log]
A49F | -1.36
A57N | -1.29
E32P | -1.5
A29Q | -1.49
V56R | -1.48
R30P | -1.48
M51Q | -1.46
L31T | -1.26
L45S | -1.5
E44A | -1.49
R53W | -1.57
T37Y | -1.31
N42I | -1.48
R53D | -1.45
A46P | -1.51
N42G | -1.48
T37L | -1.35
K39H | -1.48
L31R | -1.51
L52K | -1.52

Study 6
Target: RNA binding protein fox-1 homolog 2, RRM domain, GST-SBP tag (RBFOX2, Homo sapiens, UniProt O43251-10, residues 100-194)
Technique: RNA Bind-n-Seq
Form: RNA
Medium: in vitro
Tested at: 365 nM
Setting: natural RNA segment, single round, ends assumed
Reference: no-protein control
Direction: higher = stronger binding
Construct (chain): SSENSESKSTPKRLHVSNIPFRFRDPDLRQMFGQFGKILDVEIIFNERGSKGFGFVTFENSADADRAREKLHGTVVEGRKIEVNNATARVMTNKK
Sequence | RBNS enrichment (R)
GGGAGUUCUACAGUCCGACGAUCUGUCAGUUUUUGCAAAAAGGCCUGCUGGGGUUUCCAUAGGGAAUGUUUUGAAUCUAUAGAUGAGUCAAGGAAGAACUGCCAUCUUAACAGUAUUGGGUCUUCCGAUUUAUUGGAAUUCUCGGGUGCCAA | 0.9
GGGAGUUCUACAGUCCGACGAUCACACAGUUCACAAAACAGUACAAGGCAGUAUGACGAGAACUCAUCUUUGCUAACCUCAGCAGUUACUUUGUUUCUUUUGUUUAGAAAAGUGAUUGCAAUCCGUGUAUUUUUGGAAUUCUCGGGUGCCAA | 0.388
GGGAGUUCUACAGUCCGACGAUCACAUUUGUAACUCUUAGUUAGACUUUCUAUUAAAUGGGACCAAAUGUGUGUAUGGGUGCUGUCAGUCUGCUUCAGUCUAGCCAGUCCAGUAUCUCCAAGAUGAGACUCAAUGGAAUUCUCGGGUGCCAA | 0.226
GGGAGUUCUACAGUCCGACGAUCAAAAUCCCUGGAUAUGACAUAAAAAGGAUUUUGGCUUCUUUUUUGAAGUAUUUAAAAUUAAUCACCUUAGCUCUACCAUAUACUAGAUCUGUGACCGCUACACAAAUUGUUGGAAUUCUCGGGUGCCAA | 0.469
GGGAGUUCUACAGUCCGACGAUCUUGGGAGAAAUGAUACACUUGGUCUCAUUAUGUGAAGCGGGGUGGGGAUAACGAGACAGGGAAAUGGCCGCCAUGGUGGCCUGCUCCCUGCCAACACUAAUGUUCCCCACUGGAAUUCUCGGGUGCCAA | 0.314
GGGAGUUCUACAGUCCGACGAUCCUACAGCUUAGAAACCCAAUAUCAGUUGUACUUAACAUCUUUAAGAGCAUGAUCAUAAAGGCUAUUUUGACAGUUCAUUUUAACAUUUAGAGUUGAUAAGGGUUUAUAUCUGGAAUUCUCGGGUGCCAA | 1.9
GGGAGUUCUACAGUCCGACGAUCGAGAAGGUGGCGCUGCCAGGUGCCCGGGUCUAUUGGAGGCGCCCCAUCUCAGACUUCCUAACACAGCCUGUGUGGAAGGCAGAACAAAGAAUGCAUGCCCAGUCAGAAAUUGGAAUUCUCGGGUGCCAA | 22.3
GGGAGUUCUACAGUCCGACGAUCUCUGGGCCUGCCACCACGCCCCUGGCUAGUGCACCAAGACCUGCUGCUCCUGCCAGCAACCCACCACCACCGGCUCUCAUGUCUACAACUCAGAGCCGCCCACCCUGGAUUGGAAUUCUCGGGUGCCAA | 0.433
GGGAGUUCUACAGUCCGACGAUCCUGCGGUAGCUCCCUCCCUUCAGAGUUACAUCAUUAUCCUGACUCUGUGUAGGUAAAUUUCCGUGAAAUUUUUGUACAAAAAAAAAGGUAAUGAAAGAACGUUGCAAAGAUGGAAUUCUCGGGUGCCAA | 0.605
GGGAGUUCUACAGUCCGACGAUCCCCCGUUCUUGGAAUUUUCUUCCCCAUGGGGCUGGGGUACUUUACAUUCAAUAAAUACUGUUUAACCAAUGUCCUGGUUUGUUUAUACACAGAAAGGUGGGUCCUGGAACUGGAAUUCUCGGGUGCCAA | 0.658
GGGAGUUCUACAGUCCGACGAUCACCUGGAGGACAGUGUGUGCCAUGUCUCCCAUACUAGAGAUAAAUAAAUGUAGCCACAUUUACUGUGUAUCUGUUAUAAUUCUCUAUUUUUUGAAGCUCAAAUAUCAAAAUGGAAUUCUCGGGUGCCAA | 0.514
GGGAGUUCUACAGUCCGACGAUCAACCCUUUGAACCUGAUGUGACUUCAGCAAUAACCUUCACCUGACUCUGGAGCCUCCGUCUCUUCGAUUAUAAAGACACCCGUCCUUAAGACAGCCGCUCCUUGGACACUUGGAAUUCUCGGGUGCCAA | 0.31

Single results of other studies
Molecule | target | assay | test system | conditions | how to read | measurement | result
PhoQ, residues 284 288 289 292 302 303 AGGLSV | PhoP, residues 12 14 15 18 19 FWNTL (Escherichia coli, UniProt P23836) | Sort-seq, refers to: YFP reporter | E. coli | PhoQ-PhoP variant library, with: 10 µM Mg2+ | reference: high Mg2+ state, higher = stronger signaling | fold induction | 0.589

For quick reference, copied from above (study 2):
Substitution | relative binding score [%]
T17E | 4.24
S9V | 30.1
N61S | 61.9
D144H | -0.0985
E128G | 72.4
I12D | -3.09
D159L | -18.2
L169F | -14.5
L29H | 32
E125W | 19.4
Y115S | 3.45
A30K | 37.2
